Measurements of several laboratories.
T1: PDHA1/PDHB 30-390 E232A on β (Homo sapiens); chain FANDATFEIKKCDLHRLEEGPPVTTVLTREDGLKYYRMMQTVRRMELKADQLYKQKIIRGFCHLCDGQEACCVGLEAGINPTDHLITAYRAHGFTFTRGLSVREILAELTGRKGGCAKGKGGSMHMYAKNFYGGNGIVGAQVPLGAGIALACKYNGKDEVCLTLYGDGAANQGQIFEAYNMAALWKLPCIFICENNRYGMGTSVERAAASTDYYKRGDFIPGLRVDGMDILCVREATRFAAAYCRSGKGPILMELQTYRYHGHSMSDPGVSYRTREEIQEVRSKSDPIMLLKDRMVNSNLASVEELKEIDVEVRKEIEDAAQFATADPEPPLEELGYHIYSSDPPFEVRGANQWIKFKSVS; chain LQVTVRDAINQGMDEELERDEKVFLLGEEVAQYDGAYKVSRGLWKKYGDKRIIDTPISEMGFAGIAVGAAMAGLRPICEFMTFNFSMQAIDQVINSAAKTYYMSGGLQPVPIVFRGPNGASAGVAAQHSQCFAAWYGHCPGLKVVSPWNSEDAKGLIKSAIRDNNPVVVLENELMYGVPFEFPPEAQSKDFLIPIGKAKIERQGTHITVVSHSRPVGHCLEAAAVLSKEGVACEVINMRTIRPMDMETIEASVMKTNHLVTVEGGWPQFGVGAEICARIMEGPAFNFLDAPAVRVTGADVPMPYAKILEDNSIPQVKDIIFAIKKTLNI
B1: ARRB1 1-382 K232Q/R236Q/K250Q (Homo sapiens, UniProt P49407); chain MGDKGTRVFKKASPNGKLTVYLGKRDFVDHIDLVDPVDGVVLVDPEYLKERRVYVTLTVAFRYGREDLDVLGLTFRKDLFVANVQSFPPAPEDKKPLTRLQERLIKKLGEHAYPFTFEIPPNLPSSVTLQPGPEDTGKALGVDYEVKAFVAENLEEKIHKRNSVRLVIRKVQYAPERPGPQPTAETTRQFLMSDKPLHLEASLDKEIYYHGEPISVNVHVTNNTNKTVKKIQISVQQYADIVLFNTAQYQVPVAMEEADDTVAPSSTFSKVYTLTPFLANNREKRGLALDGKLKHEDTNLASSTLLREGANREILGIIVSYKVKVKLVVSRGGLLGDLASSDVAVELPFTLMHPKPKEEPPHREVPENETPVDTNLIELDTN
B2: Rrp47/Rrp6 (Saccharomyces cerevisiae); chain 1 MEDIEKIKPYVRSFSKALDELKPEIEKLTSKSLDEQLLLLSDERAKLELINRYAYVLSSLMFANMKVLGVKDMSPILGELKRVKSYMDKAKQYDNRITKSNEKSQAEQEKAKNIISNVLDGNKNQFEPSISRSNFQGKHTKFENDELAESTTTKIIDSTDHIRKASSKKSKRLDKVGKKKGGKK; chain 2 MTSENPDVLLSRVINVVRAASSLASQDVDFYKNLDRGFSKDLKSKADKLADMANEIILSIDEHHESFELKEEDISDLWNNFGNIMDNLLEMSDHSLDKLNCAINSKSRGSDLQYLGEFSGKNFSPTKRVEKPQLKFKSPIDNSESHPFIPLLKEKPNALKPLSESLRLVDDDENNPSHYPHPYEYEIDHQEYSPEILQIREEIPSKSWDDSVPIWVDTSTELESMLEDLKNTKEIAVDLEHHDYRSYYGIVCLMQISTRERDYLVDTLKLRENLHILNEVFTNPSIVKVFHGAFMDIIWLQRDLGLYVVGLFDTYHASKAIGLPRHSLAYLLENFANFKTSKKYQLADWRIRPLSKPMTAYARADTHFLLNIYDQLRNKLIESNKLAGVLYESRNVAKRRFEYSKYRPLTPSSEVYSPIEKESPWKILMYQYNIPPEREVLVRELYQWRDLIARRDDESPRFVMPNQLLAALVAYTPTDVIGVVSLTNGVTEHVRQNAKLLANLIRDALRNIKNTNEEATPIPSSETKADGILLETISVPQIRDVMERFSVLCNSNISKSRAKPVTNSSILLGKILPREEHDIAYSKDGLPNKVKTEDIRIRAQNFKSALANLEDIIFEIEKPLVVPVKLEEIKTVDPASAPNHSPEIDNLDDLVVLKKKNIQKKQPAKEKGVTEKDAVDYSKIPNILSNKPGQNNRQQKKRRFDPSSSDSNGPRAAKKRRPAAKGKNLSFKR
B3: DNAJB11 (Homo sapiens, UniProt Q9UBS4); chain GRDFYKILGVPRSASIKDIKKAYRKLALQLHPDRNPDDPQAQEKFQDLGAAYEVLSDSEKRKQYDTYGEEGLKDGHQSSHGDIFSHFFGDFGFMFGGTPRQQDRNIPRGSDIIVDLEVTLEEVYAGNFVEVVRNKPVARQAPGKRKCNCRQEMRTTQLGPGRFQMTQEVVCDECPNVKLVNEERTLEVEIEPGVRDGMEYPFIGEGEPHVDGEPGDLRFRIKVVKHPIFERRGDDLYTNVTISLVESLVGFEMDITHLDGHKVHISRDKITRPGAKLWKKGEGLPNFDNNNIKGSLIITFDVDFPKEQLTEEAREGIKQLLKQGSVQKVYNGLQGY
B4: fbcF 9-187 (Rhodobacter sphaeroides, UniProt Q02762); chain GTRRDFLYYATAGAGAVATGAAVWPLINQMNPSADVQALASIFVDVSSVEPGVQLTVKFLGKPIFIRRRTEADIELGRSVQLGQLVDTNARNANIDAGAEATDQNRTLDEAGEWLVMWGVCTHLGCVPIGGVSGDFGGWFCPCHGSHYDSAGRIRKGPAPENLPIPLAKFIDETTIQLG
B5: PDHB 31-359 (Homo sapiens, UniProt P11177); chain LQVTVRDAINQGMDEELERDEKVFLLGEEVAQYDGAYKVSRGLWKKYGDKRIIDTPISEMGFAGIAVGAAMAGLRPICEFMTFNFSMQAIDQVINSAAKTYYMSGGLQPVPIVFRGPNGASAGVAAQHSQCFAAWYGHCPGLKVVSPWNSEDAKGLIKSAIRDNNPVVVLENELMYGVPFEFPPEAQSKDFLIPIGKAKIERQGTHITVVSHSRPVGHCLEAAAVLSKEGVECEVINMRTIRPMDMETIEASVMKTNHLVTVEGGWPQFGVGAEICARIMEGPAFNFLDAPAVRVTGADVPMPYAKILEDNSIPQVKDIIFAIKKTLNI
B6: DLAT 214-416 (Homo sapiens, UniProt P10515); sequence looked up; chain SYPPHMQVLLPALSPTMTMGTVQRWEKKVGEKLSEGDLLAEIETDKATIGFEVQEEGYLAKILVPEGTRDVPLGTPLCIIVEKEADISAFADYRPTEVTDLKPQVPPPTPPPVAAVPPTPQPLAPTPSAPCPATPAGPKGRVFVSPLAKKLAVEKGIDLTQVKGTGPDGRITKKDIDSFVPSKVAPAPAAVVPPTGPGMAPVP
B7: Osm 24-206 (Mus musculus, UniProt P53347); chain ANRGCSNSSSQLLSQLQNQANLTGNTESLLEPYIRLQNLNTPDLRAACTQHSVAFPSEDTLRQLSKPHFLSTVYTTLDRVLYQLDALRQKFLKTPAFPKLDSARHNILGIRNNVFCMARLLNHSLEIPEPTQTDSGASRSTTTPDVFNTKIGSCGFLWGYHRFMGSVGRVFREWDDGSTRSRR
B8: mel-26 (Caenorhabditis elegans, UniProt Q94420); sequence looked up; chain MEPRIDGGVFIGGIGNSGNEMCSNGVPALGVSSQTEIKVEKVQHTWTVKNFSHCYQEYLENFVYLQRGDEQLTWSIKIYPKGNGENNKDFVFLCLNRVINNNVKAGKIGFKSQFKLRTAENKDIEMRIHPNPSHSDYVSYIKRDVLFPQIMPRDMIIVNVEIDVAVETITTTNEPIQFEPTNSEQQLIEDYQRLFSQELLCDFAINVNGKIIRAHKAVLAARSPVFNAMLTHQDTDEAKSSMMYINDMDYDVIYEMVYYIYCGRCNKDITDMATALLIAADKYRLEELKSHCEKYLVENINIENACSLLIIGDLYSAPKLRKRAVTYILARPKNVTGTPGWEDILKGHPNLITDIFSQIDRQSSTGATSSVSNLPGVPMDIPGITGNIVPPPSGL
B9: sasA (Synechococcus elongatus, UniProt Q06904); sequence looked up; chain MGESLSPQALAQPLLLQLFVDTRPLSQHIVQRVKNILAAVEATVPISLQVINVADQPQLVEYYRLVVTPALVKIGPGSRQVLSGIDLTDQLANQLPQWLVQQEAFFADREPPEVNIPFTELGQPETPALQQADAFFQLQQQYADLSERTKFLEQVIALVAHDLRNPLTAALLAVDTIQIRSQSFSVATAKEMQGLCSLFDQARSQLREIERMIAEILEATRHSGESLRINPREVVFEPLLQQVLEQLHERWRSKQQQLITDVPGDLPTLYADPDRLRQVLVNLLDNAIKYTPPGGTITIAALHRTSQKVQISISDTGSGIPRDQLSVIFKNLVRLSRDSSQEGYGIGLSVCQRIVQAHFGRIWVASELGQGSTFHFTMPVYRYTMPC
B10: BNI5 C266F/C375S (Saccharomyces cerevisiae, UniProt P53890); AF647 label at C144; sequence looked up; chain MGLDQDKIKKRLSQIEIDINQMNQMIDENLQLVEPAEDEAVEDNVKDTGVVDAVKVAETALFSGNDGADSNPGDSAQVEEHKTAQVHIPTENEANKSTDDPSQLSVTQPFIAKEQITHTAIAIGDSYNSFVANSAGNEKAKDSCTENKEDGTVNIDQNRGEADVEIIENNDDEWEDEKSDVEEGRVDKGTEENSEIESFKSPMPQNNTLGGENKLDAELVLDKFSSANKDLDIQPQTIVVGGDNEYNHESSRLADQTPHDDNSENFPNRSGGSTPLDSQTKIFIPKKNSKEDGTNINHFNSDGDGQKKMANFETRRPTNPFRVISVSSNSNSRNGSRKSSLNKYDSPVSSPITSASELGSIAKLEKRHDYLSMKSIKLQKEIDYLNKMNAQGSLSMEDGKRLHRAVVKLQEYLDKKTKEKYEVGVLLSRHLRKQIDRGENGQFWIGTK
UniProt Q79PF4, sequence (whole entry, unmodified, looked up): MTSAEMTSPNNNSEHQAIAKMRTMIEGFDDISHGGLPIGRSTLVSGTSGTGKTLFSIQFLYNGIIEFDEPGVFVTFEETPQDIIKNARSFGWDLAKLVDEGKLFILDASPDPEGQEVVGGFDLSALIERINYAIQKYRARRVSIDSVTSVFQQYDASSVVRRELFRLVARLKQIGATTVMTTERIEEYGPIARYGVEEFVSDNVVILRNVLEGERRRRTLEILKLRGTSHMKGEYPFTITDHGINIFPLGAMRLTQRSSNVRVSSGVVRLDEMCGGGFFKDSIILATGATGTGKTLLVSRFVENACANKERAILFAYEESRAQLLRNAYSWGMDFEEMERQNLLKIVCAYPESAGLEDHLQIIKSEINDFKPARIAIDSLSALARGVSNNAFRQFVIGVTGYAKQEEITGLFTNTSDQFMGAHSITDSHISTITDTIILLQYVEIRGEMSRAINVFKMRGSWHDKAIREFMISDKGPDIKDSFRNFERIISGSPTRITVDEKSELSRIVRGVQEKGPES
UniProt P13045, sequence (whole entry, looked up): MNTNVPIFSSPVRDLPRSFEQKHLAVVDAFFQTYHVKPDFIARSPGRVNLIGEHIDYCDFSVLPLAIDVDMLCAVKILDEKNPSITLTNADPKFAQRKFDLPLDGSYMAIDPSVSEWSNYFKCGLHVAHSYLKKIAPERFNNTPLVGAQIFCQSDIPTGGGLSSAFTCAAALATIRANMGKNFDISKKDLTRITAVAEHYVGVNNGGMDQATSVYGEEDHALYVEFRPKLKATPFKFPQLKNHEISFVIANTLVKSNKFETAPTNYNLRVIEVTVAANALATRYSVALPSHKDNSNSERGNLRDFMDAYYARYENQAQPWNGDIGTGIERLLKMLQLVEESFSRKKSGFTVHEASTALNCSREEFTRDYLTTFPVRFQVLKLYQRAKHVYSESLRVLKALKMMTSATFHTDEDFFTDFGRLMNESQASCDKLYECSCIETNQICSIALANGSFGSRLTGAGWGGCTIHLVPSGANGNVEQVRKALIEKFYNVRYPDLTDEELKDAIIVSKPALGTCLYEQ
UniProt O60656, sequence (whole entry, looked up): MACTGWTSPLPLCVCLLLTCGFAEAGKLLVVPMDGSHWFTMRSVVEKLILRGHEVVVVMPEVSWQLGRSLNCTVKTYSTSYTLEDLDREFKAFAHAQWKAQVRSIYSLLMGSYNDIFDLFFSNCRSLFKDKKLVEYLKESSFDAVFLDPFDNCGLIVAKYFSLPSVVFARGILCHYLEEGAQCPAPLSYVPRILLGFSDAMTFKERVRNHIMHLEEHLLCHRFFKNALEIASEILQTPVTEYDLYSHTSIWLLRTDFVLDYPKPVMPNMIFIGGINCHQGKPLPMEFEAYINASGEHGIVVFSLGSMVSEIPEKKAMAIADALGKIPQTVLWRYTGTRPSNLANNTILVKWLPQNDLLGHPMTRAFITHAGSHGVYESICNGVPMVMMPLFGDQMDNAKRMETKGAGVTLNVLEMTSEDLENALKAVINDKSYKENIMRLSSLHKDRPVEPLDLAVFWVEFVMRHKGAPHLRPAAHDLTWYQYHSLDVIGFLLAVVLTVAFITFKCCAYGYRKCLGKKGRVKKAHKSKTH
UniProt Q02760, sequence (whole entry, looked up): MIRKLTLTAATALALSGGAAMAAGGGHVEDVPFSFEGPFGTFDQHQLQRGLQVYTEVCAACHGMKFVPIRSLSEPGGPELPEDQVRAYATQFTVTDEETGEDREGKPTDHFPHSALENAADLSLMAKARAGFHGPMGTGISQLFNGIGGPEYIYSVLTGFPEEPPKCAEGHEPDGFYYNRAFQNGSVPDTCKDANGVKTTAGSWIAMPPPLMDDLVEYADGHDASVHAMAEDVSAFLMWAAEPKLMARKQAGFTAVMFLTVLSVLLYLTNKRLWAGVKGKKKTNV
UniProt Q13188, sequence (whole entry, looked up): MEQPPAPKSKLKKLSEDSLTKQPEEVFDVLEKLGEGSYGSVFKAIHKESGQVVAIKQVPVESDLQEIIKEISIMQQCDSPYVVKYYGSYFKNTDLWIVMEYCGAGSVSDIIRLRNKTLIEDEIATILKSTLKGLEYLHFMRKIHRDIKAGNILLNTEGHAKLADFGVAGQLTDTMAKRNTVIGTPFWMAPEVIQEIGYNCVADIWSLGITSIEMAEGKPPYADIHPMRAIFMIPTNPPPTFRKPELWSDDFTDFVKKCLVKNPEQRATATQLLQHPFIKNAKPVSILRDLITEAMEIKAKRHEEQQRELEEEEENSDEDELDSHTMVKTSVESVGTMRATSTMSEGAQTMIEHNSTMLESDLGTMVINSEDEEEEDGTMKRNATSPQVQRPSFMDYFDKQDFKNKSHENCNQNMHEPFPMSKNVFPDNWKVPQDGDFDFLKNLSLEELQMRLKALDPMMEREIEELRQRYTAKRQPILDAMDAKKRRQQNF
UniProt P04387, sequence (whole entry, looked up): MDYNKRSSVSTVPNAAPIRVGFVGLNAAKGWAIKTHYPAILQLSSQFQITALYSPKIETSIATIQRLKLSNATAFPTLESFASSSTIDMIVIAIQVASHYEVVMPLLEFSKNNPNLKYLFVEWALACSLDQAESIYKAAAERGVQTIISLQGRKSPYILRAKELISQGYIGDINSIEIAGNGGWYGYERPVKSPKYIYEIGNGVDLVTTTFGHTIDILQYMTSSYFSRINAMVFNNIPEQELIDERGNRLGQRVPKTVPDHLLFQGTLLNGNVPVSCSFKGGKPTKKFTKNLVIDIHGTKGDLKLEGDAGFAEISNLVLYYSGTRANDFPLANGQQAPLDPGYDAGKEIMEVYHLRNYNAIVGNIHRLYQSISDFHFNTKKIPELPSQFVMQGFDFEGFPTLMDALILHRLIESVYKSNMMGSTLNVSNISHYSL
UniProt P30989, sequence (whole entry, looked up): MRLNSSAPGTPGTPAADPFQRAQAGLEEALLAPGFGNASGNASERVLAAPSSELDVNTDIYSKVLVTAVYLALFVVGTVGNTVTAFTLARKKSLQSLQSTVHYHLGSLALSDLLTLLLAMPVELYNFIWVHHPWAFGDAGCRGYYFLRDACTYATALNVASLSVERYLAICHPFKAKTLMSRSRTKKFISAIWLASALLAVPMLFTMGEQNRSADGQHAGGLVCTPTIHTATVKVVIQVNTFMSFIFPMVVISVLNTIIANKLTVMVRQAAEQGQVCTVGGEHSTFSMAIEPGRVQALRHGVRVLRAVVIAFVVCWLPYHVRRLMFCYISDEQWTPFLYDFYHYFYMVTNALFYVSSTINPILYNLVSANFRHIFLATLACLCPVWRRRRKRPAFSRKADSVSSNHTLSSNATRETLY
UniProt P46020, sequence (whole entry, looked up): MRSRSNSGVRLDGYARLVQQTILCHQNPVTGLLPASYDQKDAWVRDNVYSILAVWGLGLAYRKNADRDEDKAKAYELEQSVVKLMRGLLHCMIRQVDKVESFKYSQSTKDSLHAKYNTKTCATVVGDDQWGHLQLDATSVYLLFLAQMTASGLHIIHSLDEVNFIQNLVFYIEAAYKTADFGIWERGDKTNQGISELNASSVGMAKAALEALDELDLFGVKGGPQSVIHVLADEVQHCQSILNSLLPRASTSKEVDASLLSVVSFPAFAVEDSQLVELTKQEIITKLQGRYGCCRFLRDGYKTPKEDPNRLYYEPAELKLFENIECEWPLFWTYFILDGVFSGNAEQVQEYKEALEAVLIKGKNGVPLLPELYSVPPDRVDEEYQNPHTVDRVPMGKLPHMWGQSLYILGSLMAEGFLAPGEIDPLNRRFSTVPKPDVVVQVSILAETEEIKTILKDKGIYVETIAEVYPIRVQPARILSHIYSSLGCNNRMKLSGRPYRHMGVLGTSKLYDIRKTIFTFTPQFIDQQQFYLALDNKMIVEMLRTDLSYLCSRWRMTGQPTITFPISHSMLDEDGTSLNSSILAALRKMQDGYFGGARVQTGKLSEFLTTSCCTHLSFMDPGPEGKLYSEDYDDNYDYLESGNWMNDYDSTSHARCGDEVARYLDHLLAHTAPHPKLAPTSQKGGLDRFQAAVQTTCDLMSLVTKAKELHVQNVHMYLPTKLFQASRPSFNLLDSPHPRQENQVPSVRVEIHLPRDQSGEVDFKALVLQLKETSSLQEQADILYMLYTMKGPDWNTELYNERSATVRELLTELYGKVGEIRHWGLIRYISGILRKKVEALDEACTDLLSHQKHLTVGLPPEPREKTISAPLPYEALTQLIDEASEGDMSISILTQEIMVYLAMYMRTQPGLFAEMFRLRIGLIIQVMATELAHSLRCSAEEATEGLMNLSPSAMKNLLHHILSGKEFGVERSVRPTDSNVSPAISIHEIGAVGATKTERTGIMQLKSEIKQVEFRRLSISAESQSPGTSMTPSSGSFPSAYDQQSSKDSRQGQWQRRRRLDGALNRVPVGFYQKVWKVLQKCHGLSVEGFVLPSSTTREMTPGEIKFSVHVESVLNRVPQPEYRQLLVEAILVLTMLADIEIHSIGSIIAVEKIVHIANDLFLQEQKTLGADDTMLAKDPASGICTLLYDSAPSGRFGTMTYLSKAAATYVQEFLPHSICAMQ
UniProt P34808, sequence (whole entry, unmodified, looked up): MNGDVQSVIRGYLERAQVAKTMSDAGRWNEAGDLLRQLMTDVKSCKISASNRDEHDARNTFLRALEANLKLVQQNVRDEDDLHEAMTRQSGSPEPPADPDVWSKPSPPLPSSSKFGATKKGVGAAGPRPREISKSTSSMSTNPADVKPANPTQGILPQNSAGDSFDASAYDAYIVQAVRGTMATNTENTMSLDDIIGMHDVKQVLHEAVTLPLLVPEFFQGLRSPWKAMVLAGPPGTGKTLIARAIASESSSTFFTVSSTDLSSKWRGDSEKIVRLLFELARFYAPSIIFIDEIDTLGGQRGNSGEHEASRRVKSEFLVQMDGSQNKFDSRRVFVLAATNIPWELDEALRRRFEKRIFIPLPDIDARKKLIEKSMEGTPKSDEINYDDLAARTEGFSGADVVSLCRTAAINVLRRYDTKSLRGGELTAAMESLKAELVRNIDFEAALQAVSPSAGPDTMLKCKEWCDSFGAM

Molecule	target or system	test	system	setting	endpoint	result
RRKAFLHWYTGEGMDEMEFTEAESNMNDLVSEYQQYQDATADEQGEFEEEEGEDEA (TUBB2B 390-445 (Homo sapiens, UniProt Q9BVA1); sequence looked up)	MYO10 MyTH4-FERM 1486-2058 del1872-1891 (Homo sapiens, UniProt Q9HD67)	pull-down	peptide		binding	binds
B1 (ARRB1 1-382 K232Q/R236Q/K250Q)	NTSR1, GRK5-phosphorylated (Homo sapiens, UniProt P30989)	SEC			binding	binds
B2 (Rrp47/Rrp6)	SKI6/RRP45/RRP42/MTR3/RRP46/RRP43/CSL4/RRP4/RRP40 Exo9 core (Saccharomyces cerevisiae)	SEC			binding	binds
PHKB, pS12/pS27/pS701 (Homo sapiens, UniProt Q93100)	PHKA1, phosphorylated incl. pS1018 (Homo sapiens, UniProt P46020)	cryo-EM			binding	binds
GAL80 (Saccharomyces cerevisiae, UniProt P04387)	GAL3, Cy3 label (Saccharomyces cerevisiae, UniProt P13045)	sedimentation velocity, AUC		5 µM, Cy3-labeled	binding	binds
EVEWDAFSIPELQNFLTILEKEEQDKIQQVQKKYDKFRQKLEEALRES (RASSF5 366-413 (Homo sapiens, UniProt Q8WWW0); sequence looked up)	STK3 9-491, pT180 (Homo sapiens, UniProt Q13188)	SEC			binding	binds
MGSNKSKPKDASQRRRSLLPETG (SRC 1-18 (Homo sapiens, UniProt P12931))	SRC fragment, N-terminal TAMRA label (Homo sapiens)	pull-down			binding	binds
B3 (DNAJB11)	HSP90B1 E103A (Homo sapiens, UniProt P14625)	pull-down			binding	binds
B4 (fbcF 9-187)	petC cytochrome c1 (Rhodobacter sphaeroides, UniProt Q02760)	X-ray crystallography			binding	binds
B5 (PDHB 31-359)	PDHA1 E1p alpha subunit 30-390 S203A/S271A, pS264 (Homo sapiens, UniProt P08559)	crystal structure		with: Mn-ThDP, Mg-ThDP or apo	binding	binds
kaiC (Synechococcus elongatus, UniProt Q79PF4)	kaiC S431D/T432E (Synechococcus elongatus, UniProt Q79PF4)	pull-down			binding	binds
B6 (DLAT 214-416)	T1, PDHA1/PDHB 30-390 E232A on β (Homo sapiens)	SPR			binding	binds
UGT1A9 (Homo sapiens, UniProt O60656)	O=c1cc(-c2cccc(O)c2)oc2ccccc12	steady-state kinetics		pH 7.4, 37 °C	Vmax	0.000926 µmol/min/mg
B7 (Osm 24-206)	Osmr 24-738 (Mus musculus, UniProt O70458)	cryo-EM			binding	binds
B8 (mel-26)	mei-1 S92D, phosphorylated by MBK-2 (Caenorhabditis elegans, UniProt P34808)	far-Western		4 °C, denatured	binding	binds
B9 (sasA)	kaiC (Synechococcus elongatus, UniProt Q79PF4)	fluorescence polarisation		in vitro clock reaction, with: KaiC	binding	binds
B10 (BNI5 C266F/C375S)	Cdc11/Cdc12/Cdc3/Cdc10 hetero-octamer (Saccharomyces cerevisiae)	negative-stain EM		KCl 45 mM, with: septins 50 nM	binding	binds
